Measured values from different studies.
Protocols differ between the studies behind these lines. “And” joins repeats or separate records; there may be more than shown. ± gives the spread as reported.

`COc1cc(Nc2ncc3c(n2)-c2ccc(Cl)cc2C(c2c(F)cccc2OC)=NC3)ccc1C(=O)O`: “median response score” 10 (mouse, NB-1771 neuroblastoma xenograft; 20.8 mg/kg; direction not given).
Under “log2 fold change”, `N#Cc1ccc2c(-c3ccncc3)c(-c3ccc(F)cc3)nn2c1` is recorded as 0.0868 (kinase binding, competitor, MIB/MS competition, measured: TPK2; Candida albicans cell lysate; 1 µM; relative to: DMSO).
`C[C@H](CS)C(=O)N1CCC[C@H]1C(=O)O` has a Met-enkephalin concentration of 3030 pM and 1930 pM and 3870 pM and 1520 pM and 1700 pM (LC-MS/MS, measured: extracellular Met-enkephalin; mouse striatal brain slices; 10 µM, 20 min, with: 50 mM KCl).
`Oc1ccc(Br)cc1C=NCCN1CCOCC1` — result for “ferric reducing power”: 13.4% (FRAP; 80 µM).
`CC(C)CC(=O)SCCNC(=O)CCNC(=O)[C@H](O)C(C)(C)COP(=O)(O)OP(=O)(O)OC[C@H]1O[C@@H](n2cnc3c(N)ncnc32)[C@H](O)[C@@H]1OP(=O)(O)O` — result for “log2 fold change”: -0.272 (binding, MIDAS equilibrium dialysis LC-MS; A2AR-BRIL thermostabilized; concentration not given; relative to: no-protein control).
`[Cl][Fe]([Cl])[Cl]` has a DPPH scavenging of 57.1% (1.0 mg/mL, 30 min, 25 °C).
Under “log2 fold change”, `Cn1ccc(=O)c(C(N)=O)c1` is recorded as -0.176 (binding, MIDAS equilibrium dialysis LC-MS; A2AR-BRIL thermostabilized; concentration not given; relative to: no-protein control).
`Cc1cc([C@H]2C[C@H]3[C@@H](CF)SC(N)=N[C@@]3(c3ccc(F)cc3F)CO2)on1` gave an Aβ40 level of 0.52 ng/mL (measured: Aβx-40; Mus musculus wild-type, cerebrospinal fluid; subcutaneous, 30 mg/kg, 5 h).
`O=C(O)/C=C\C(=O)O`: “log2 fold change” -0.131 (binding, MIDAS equilibrium dialysis LC-MS; A2AR-BRIL thermostabilized; concentration not given; relative to: no-protein control).
Under “inhibition of platelet aggregation”, `CSCCNc1nc(SCCC(F)(F)F)nc2c1ncn2[C@@H]1O[C@H](COP(=O)(O)OP(=O)(O)C(Cl)(Cl)P(=O)(O)O)[C@@H](O)[C@H]1O` is recorded as 44.2 ± 24.1% (light transmittance aggregometry; human patients, platelet-rich plasma; dose not given, 30 min, with: ADP 5 µM).
The ACT Emax of `C[C@@H](NC(=O)N1C(=O)[C@H](Cc2ccnc(N)c2)[C@H]1C(=O)O)C1CCCCC1` is reported as 136 s (human; iv infusion, 1.0 mg/kg/h, 24 h).
`Nc1ncnc2c1ncn2[C@H]1C[C@H](O)[C@@H](COP(=O)(O)OP(=O)(O)OP(=O)(O)O)O1`: “log2 fold change” -0.274 (binding, MIDAS equilibrium dialysis LC-MS; A2AR-BRIL thermostabilized; concentration not given; relative to: no-protein control).
`CC(C)[C@H](C(=O)Nc1ccc(C(=O)NO)cc1)c1ccccc1` — result for “tumour volume change”: 20.5% (volumetric MRI; human, right C1 intradural meningioma; dose not given, day 809; relative to: baseline).
`Cc1n[nH]c2ccc(-c3cc(OC[C@@H](N)Cc4ccccc4)cnc3-c3ccoc3)cc12` — result for “log2 fold change”: -0.0626 (kinase binding, competitor, MIB/MS competition, measured: CTK1; Candida albicans cell lysate; 100 nM; relative to: DMSO).
`Oc1ccc([C@@H]2Oc3ccc(O)cc3[C@@H]3CCC[C@@H]32)cc1`: “picrosirius red reduction” 17% (mouse, male, CCl4 liver fibrosis; oral, 5 mg/kg daily).
The Aβ42 level of `Cn1cc([C@H]2C[C@H]3CSC(N)=N[C@@]3(c3ccc(F)cc3F)CO2)cn1` is reported as 0.59 ng/g (measured: Aβx-42; Mus musculus wild-type, brain; subcutaneous, 10 mg/kg, 9 h).
`CC1(C)CCC(CN2CCN(c3ccc(C(=O)NS(=O)(=O)c4ccc(NCC5CCOCC5)c([N+](=O)[O-])c4)c(Oc4cnc5[nH]ccc5c4)c3)CC2)=C(c2ccc(Cl)cc2)C1` has an EC50 of 125 nM (cell killing, flow cytometry PI exclusion; canine blood CD21+ B cells, dog 32; 24 h).
`CC1(C)C(/C=C/C=C/C=C/C=C2\N(CCCCS(=O)(=O)O)c3ccc4ccccc4c3C2(C)C)=[N+](CCCCS(=O)(=O)[O-])c2ccc3ccccc3c21`: “recurrent tumour volume” 34.2 mm³ (mouse MMTV-PyMT mammary tumour model; dose not given, 10 days post-surgery, after image-guided surgery).
`C[C@H]1C[C@H]2CSC(N)=N[C@@]2(c2nc(NC(=O)c3ccc(OC(F)F)cn3)cs2)CO1` — result for “percent change from baseline”: -60.8% (measured: total Aβ; healthy adults, plasma; 160 mg single dose, 24 h post-dose; relative to: placebo).
For `O=C(O)CNC(=O)Cc1ccccc1`, the sarcomere length was 1.63 µm (ventricular cardiomyocytes, C57BL/6 mouse; dose not given, 0.172 s).
`COc1nnc2ccc(N3CCC(c4ccc(OCCN5CCN(C)C(=O)[C@H]5C)cc4)CC3)nn12` — result for “time above HEXIM1 threshold”: 7.82 h (human patients; 10 mg twice daily, 1.5-fold above baseline, monotherapy and combination cohorts).
`N#Cc1ccc2c(c1)[C@H]1CCCN(C(=O)c3ccc4[nH]cnc4c3)[C@H]1C2`: “fasting plasma glucose change” 8% (human; 360 mg, day 15, adjusted mean; relative to: baseline, placebo-corrected).
For `Cn1cc(Nc2nccc(-c3ccc4c(c3)CN(C3COC3)CC[C@H]4NC(=O)c3cn(C(C)(C)C)nn3)n2)cn1`, “pathway activation z-score” read 0 (measured: D-myo-inositol (1,3,4)-trisphosphate Biosynthesis; splenic B cells, mouse; in vivo, 30 mg/kg, IgD-activated B cells; relative to: vehicle, positive = activation).
`N#Cc1ccn2c(-c3ccncc3)c(-c3ccc(F)cc3)nc2c1` — result for “log2 fold change”: 0.506 (kinase binding, competitor, MIB/MS competition, measured: CEK1; Candida albicans cell lysate; 10 µM; relative to: DMSO).
With `COc1cccc2c1C(=O)c1c(O)c3c(c(O)c1C2=O)C[C@@](O)(C(=O)CO)C[C@@H]3O[C@H]1C[C@H](N)[C@H](O)[C@H](C)O1` the IC50 was 0.96 nM (organoid viability, CellTiter-Glo 3D; sample D colorectal cancer organoid, human; 6 days).
`NC(=O)c1cnc2[nH]ccc2c1N[C@@H]1[C@@H]2CC3C[C@H]1C[C@@](O)(C3)C2` — result for “change from baseline”: -0.93% (flow cytometry, measured: memory T cells (CD3+ CD45RA-); Japanese healthy subjects, peripheral blood; oral, 100 mg twice daily, day 4).
The metabolite level of `C[C@@H](O)CCOC(=O)C[C@@H](C)O` is reported as -4.73 ± 0.81 µmol/L (measured: C10-OH/C8-DC acylcarnitine; human, plasma; 60 min, log2-transformed values).
Under “log2 fold change”, `CC(=O)N[C@H]1[C@H]([C@H](O)[C@H](O)CO)O[C@](OP(=O)(O)OC[C@H]2O[C@@H](n3ccc(N)nc3=O)[C@H](O)[C@@H]2O)(C(=O)O)C[C@@H]1O` is recorded as -0.163 (binding, MIDAS equilibrium dialysis LC-MS; A2AR-BRIL thermostabilized; concentration not given; relative to: no-protein control).
`CO[C@H]1CC[C@H](N2C(=O)CNc3ncc(-c4ccc(C(C)(C)O)nc4)nc32)CC1`: “pAKT change from baseline” -35.3% (flow cytometry; stimulated monocytes, human, blood; 30 mg single dose, 24 h, mean; relative to: baseline).
`CC(CCc1ccc(O)cc1)NCCc1ccc(O)c(O)c1` (centres unmarked) — result for “stroke volume change”: 3% (anaesthetised rat; intravenous infusion, 1 µg/kg/min for 15 min; relative to: baseline).
`O=P(O)(O)OC[C@H]1O[C@H](OP(=O)(O)OP(=O)(O)O)[C@H](O)[C@@H]1O`: “log2 fold change” -0.562 (binding, MIDAS equilibrium dialysis LC-MS; A2AR-BRIL thermostabilized; concentration not given; relative to: no-protein control).
The plasma C4 of `CCCCC1(CCCC)CN(c2ccccc2)c2cc(SC)c(OCC(=O)N[C@@H](C(=O)NCC(=O)O)c3ccccc3)cc2S(=O)(=O)C1` is reported as 55.5 ng/mL (measured: 7α-hydroxy-4-cholesten-3-one; human, plasma; 20 mg once daily, day 5).
`COc1ccc2c(c1)c(CC(=O)O)c(C)n2C(=O)c1ccc(Cl)cc1`: “DPPH radical scavenging” 24.6 ± 0.47% (DPPH; methanol; concentration not given, 60 min).
For `Cc1noc(C)c1-c1cc(C(O)(c2ccccn2)c2ccccn2)c2nc(C3CC3)[nH]c2c1`, the maximum induction was 61% (measured: HEXIM1 expression; human, peripheral blood; 4 mg, day 8, 1604 study).
`FC(F)(F)Oc1cccc(-c2cnc3ccc(-c4ccncc4)nn23)c1` has a tumour bioluminescence of 5.63e+10 photons/s and 1.42e+11 photons/s and 6.15e+10 photons/s and 1.28e+10 photons/s and 2.21e+10 photons/s (bioluminescence imaging; mouse, MDA-MB-231-Luc xenograft; 30 mg/kg, day 21).
For `Nc1nc2c(ncn2[C@@H]2O[C@H](COP(=O)(O)OP(=O)(O)O)[C@@H](OP(=O)(O)OP(=O)(O)O)[C@H]2O)c(=O)[nH]1`, “log2 fold change” read 3.42 (SILAC mass spectrometry, measured: typA protein; Escherichia coli lysate; concentration not given; relative to: heavy over light).
`C[C@H](Oc1ccc(Br)cc1-c1ccon1)C(=O)O` — result for “difference from placebo”: 0.162% (first response latency; human, tibialis anterior muscle; 50 mg, 30 Hz, single ascending dose).
`O=C(CO)[C@@H](O)[C@H](O)[C@H](O)[C@H](O)COP(=O)(O)O`: “log2 fold change” -0.135 (binding, MIDAS equilibrium dialysis LC-MS; A2AR-BRIL thermostabilized; concentration not given; relative to: no-protein control).
`C/C(=N\CCNCCNCC/N=C(\C)c1c(O)c2ccccc2oc1=O)c1c(O)c2ccccc2oc1=O`: “DPPH radical scavenging” 96.7% (1 mg/mL, 60 min).
With `CC(C)NCC(O)c1ccc(O)c(O)c1` (centres unmarked) the sarcomere length was 1.72 µm (ventricular cardiomyocytes, C57BL/6 mouse; dose not given, 0.76 s).
`COc1ccc(F)cc1C(=O)NCc1ccc(-c2nn([C@@H](C)C(F)(F)F)c(N)c2C(N)=O)cc1` — result for “overall response rate”: 50% (follicular lymphoma patients; dose not given, all efficacy-evaluable patients).
`Cc1cc([C@H]2C[C@H]3[C@@H](C)SC(N)=N[C@@]3(c3ccc(F)cc3F)CO2)on1` — result for “brain Aβ40 level”: 2.43 ng/g (measured: Aβx-40; wild-type mouse, brain; subcutaneous, 50 mg/kg, 18 h).
With `O=P(O)(O)C(Cl)(Cl)P(=O)(O)O` the GFAP-positive area was 3.35% (immunostaining; mouse, sham-operated, meninges; dose not given, day 1; relative to: total area).
`O=c1ccn([C@H]2C[C@H](O)[C@@H](COP(=O)(O)O)O2)c(=O)[nH]1` — result for “log2 fold change”: -0.0521 (binding, MIDAS equilibrium dialysis LC-MS; A2AR-BRIL thermostabilized; concentration not given; relative to: no-protein control).
`OC(CCN1CCCCC1)(c1ccccc1)C1CC2C=CC1C2` (centres unmarked) — result for “EEG Beta3-power Pz-O1”: 2.2 µV² (resting-state EEG; healthy elderly humans; oral, 4 mg, eyes closed, LS mean).
Under “β-elimination rate constant”, `N#C/C(=C\c1ccccc1)c1cnccn1` is recorded as 0.096 min⁻¹ (pH 7.4).
`C=CCn1c(=O)c2cnc(Nc3ccc(N4CCN(C)CC4)cc3)nc2n1-c1ccc2c(n1)[C@@](O)(CC)CC2`: “tumour growth inhibition” 63.8% (NCI-H23 xenograft, NCG mice; oral, 80 mg/kg, day 35, once daily x 35).
Under “log2 fold change”, `c1ccc(-c2n[nH]cc2-c2ccnc3ccccc23)nc1` is recorded as -1.18 (kinase binding, competitor, MIB/MS competition, measured: YCK2; Candida albicans cell lysate; 10 µM; relative to: DMSO).
With `C[C@H]1O[C@@H](O[C@H]2CC[C@@]3(C)[C@@H](CC[C@]4(C)[C@@H]3C=C[C@]35OC[C@@]6(CCC(C)(C)C[C@H]63)[C@@H](O)C[C@]54C)[C@]2(C)CO)[C@H](O)[C@@H](O[C@@H]2O[C@H](CO)[C@@H](O)[C@H](O)[C@H]2O)[C@H]1O` the adipose area was 1.81% and 1.84% and 2.06% (H&E staining; mice, normal control diet, liver; dose not given, high dose).
The Aβ40 level of `Cc1coc([C@H]2C[C@H]3[C@@H](CF)SC(N)=N[C@@]3(c3ccc(F)cc3F)CO2)n1` is reported as 1.62 ng/mL (measured: Aβx-40; Mus musculus wild-type, cerebrospinal fluid; subcutaneous, 80 mg/kg, 9 h).
